Assay results pooled from the literature.
A part holds a random share of what one study measured. Changes are numbered by the printed parent chain.
UniProt Q14680, sequence (whole entry, looked up): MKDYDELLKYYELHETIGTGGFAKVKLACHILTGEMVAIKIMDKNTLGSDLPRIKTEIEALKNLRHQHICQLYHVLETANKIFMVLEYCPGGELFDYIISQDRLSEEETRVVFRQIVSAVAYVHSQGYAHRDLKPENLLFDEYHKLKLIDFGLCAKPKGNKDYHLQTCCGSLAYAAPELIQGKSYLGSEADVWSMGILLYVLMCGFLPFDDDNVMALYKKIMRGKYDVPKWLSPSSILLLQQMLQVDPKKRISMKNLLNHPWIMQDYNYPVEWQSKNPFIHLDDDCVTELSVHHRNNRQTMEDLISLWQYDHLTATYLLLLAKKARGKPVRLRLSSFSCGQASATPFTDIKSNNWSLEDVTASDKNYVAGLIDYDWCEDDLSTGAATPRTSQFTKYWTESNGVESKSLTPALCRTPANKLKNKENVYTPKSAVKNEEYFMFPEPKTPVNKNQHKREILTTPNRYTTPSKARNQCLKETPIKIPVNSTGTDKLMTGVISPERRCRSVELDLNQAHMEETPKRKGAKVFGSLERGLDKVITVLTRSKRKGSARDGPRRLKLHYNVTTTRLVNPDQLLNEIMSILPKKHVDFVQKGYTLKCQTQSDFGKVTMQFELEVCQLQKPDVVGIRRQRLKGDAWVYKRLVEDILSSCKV

Study 1 — method: RNAcompete; form: RNA; sample: in vitro; concentration: 20 nM; setting: 7-mer, probes averaged, single round; baseline: mean of 7-mers; direction: higher = stronger binding; measurement: 7-mer Z-score
Target: PABPC1L2, full length, GST fusion (mouse, UniProt A0ABA7IW68)
Residues (chain): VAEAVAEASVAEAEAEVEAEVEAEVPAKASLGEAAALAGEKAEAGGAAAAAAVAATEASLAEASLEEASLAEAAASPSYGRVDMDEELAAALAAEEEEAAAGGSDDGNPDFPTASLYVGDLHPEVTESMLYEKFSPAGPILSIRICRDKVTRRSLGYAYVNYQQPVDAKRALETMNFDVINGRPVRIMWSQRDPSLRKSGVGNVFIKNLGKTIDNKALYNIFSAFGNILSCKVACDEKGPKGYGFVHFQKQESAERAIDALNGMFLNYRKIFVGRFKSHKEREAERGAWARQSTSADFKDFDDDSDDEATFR
CUAGGCA: -0.191
CACCGCU: -0.142
UACUGUG: -0.117
AAUAGUC: 0.0732
GUAAUCG: -0.121
CGGCGGG: 0.193
UGAAACC: -0.217
CGGAUUU: -0.0264

Study 2 — method: RNA Bind-n-Seq; form: RNA; sample: in vitro; concentration: not given; baseline: input RNA pool; direction: higher = stronger binding; measurement: bound/input enrichment
Target: RING finger protein unkempt homolog, zinc fingers 1-6, GST-SBP tag (UNK, Homo sapiens, UniProt Q9C0B0, residues 30-357)
Setting: RNA with constant flanks, human and mouse sites, ends assumed
Constant ends, left off below: GGGAGUUCUACAGUCCGACGAUC … CAACAGAGGAUUGAGCAUCA
Construct (chain): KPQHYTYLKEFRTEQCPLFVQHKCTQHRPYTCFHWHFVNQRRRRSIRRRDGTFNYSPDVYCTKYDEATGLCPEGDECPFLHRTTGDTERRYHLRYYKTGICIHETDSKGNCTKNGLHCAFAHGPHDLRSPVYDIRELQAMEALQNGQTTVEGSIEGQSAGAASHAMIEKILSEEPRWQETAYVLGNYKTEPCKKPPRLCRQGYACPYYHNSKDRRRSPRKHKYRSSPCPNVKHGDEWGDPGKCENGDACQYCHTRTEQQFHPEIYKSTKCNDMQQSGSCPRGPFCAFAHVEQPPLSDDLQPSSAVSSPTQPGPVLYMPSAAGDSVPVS
UAAGAAAUUGUUAUUCUGCUAAUAUUUACUUGUGAUUGUGUGACAAGCGUGUUUACAGAUGAUUUGGUUCCACUUCUUUACAGGGCAUAAACAAUGAUUAUCUAUUACUCUGAACUUUAU: 0.355 ratio
AGAAAGCUUUUAAGUUCUUUGCAGUAUAAUAAGAAUUUGCUAAAAUAUUUAAAUGAUGAUAGGCAGAAGCAACCAUCUUUUUGUGAUUUACUUAUCAUAGUGGAAGGAAAAGAAUUUAGU: 1.04 ratio
GCAGAAUUUGCUGAACUAAAAACACAAAUAGAGAAAAUGAGACUAGAUUACCAACACGAAAUAGAAAAUUUGCAGAAUCAACAAGACUCUGAACGGGCUGCCCAUGCUAAAGAGAUGGAA: 14.5 ratio
UUCCUCGCAAGCCUGGCUGCUGCAGGGAGUGGCACAGAUGCCCAGGUGGCCCUAGUGAAUGAAGUAAAAGCAGCCCUUGGACGGGCACUGGCUAUGGCUGAGAGUACAGAGAAACAUGCC: 0.714 ratio
GGGGGCCAGGGGGCGGUGGCGGGAGGAUUGAGUGCCUAGACGGUCGCCCAGGAGCAGGUGUAGCUACUUCACAUCGACUGACUCCAAGAUGGCAAUCCAGUUGCGUUCGCUCUUCCCCUU: 0.408 ratio
UUCUUUAACAAUUUUACAAUGAAAAUAAAAACUUAAUAAAAGGUGGUAAUGGGCCAGGCACGGUGGCUCACGCAUACAAUCCCAGCACUUUGGGAGACUAAGGCGUGAGGAUCACUUGAG: 0.901 ratio
UCUUUAAAAAAAAAAUUACCUUUUCUGACAGUGCUUUCCCUCCCAUAGAUCCACGUUCAAGCUCAAAGAGCAAAGGCUUUGCACGGAGCUCAAACAUCUGAUGAAGAAAGAUUUCUGAGA: 0.874 ratio
GGUGUUGUAAGUGCCCAAAGUCAUGGUACUUGUAUUCCCAGUGAAGAUAAAACCUGUCAGAGCACAAAGAUGGUUUCUUAUAAUGAUUCUGUCACACAAGCCACCUUGACCACAGCUUAU: 0.0946 ratio

Study 3 — target: ATF2, bZIP domain (human); method: DHFR protein complementation; sample: yeast; baseline: wild-type JUN-FOS pair; direction: higher = stronger binding; measurement: binding fitness
Setting: single substitutions, most at no-binding floor
Starting sequence: JUN, bZIP domain (human); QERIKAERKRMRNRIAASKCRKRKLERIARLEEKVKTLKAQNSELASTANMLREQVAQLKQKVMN; partner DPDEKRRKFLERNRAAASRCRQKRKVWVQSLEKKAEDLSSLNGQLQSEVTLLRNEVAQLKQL
K34W: -1.43 natural log
V35P: -1.48 natural log
L59C: -1.42 natural log
M51Y: -1.43 natural log
A57E: -1.54 natural log
L45M: -1.47 natural log
Q58R: -1.5 natural log
V56M: -1.48 natural log

Other studies, line by line
CCN(CC)CCNC(=O)c1c(C)[nH]c(/C=C2\C(=O)Nc3ccc(Cl)cc32)c1C — remaining activity (Maternal embryonic leucine zipper kinase (MELK, Homo sapiens, UniProt Q14680); enzyme activity, inhibitor; 0.5 µM; baseline: control): 16.7%

Some of these lines once more (study 1):
CUAGGCA: -0.191
UGAAACC: -0.217
CGGAUUU: -0.0264
CACCGCU: -0.142
